Experimental data gathered from unrelated publications.
Protocols differ between the studies behind these lines. Numbers after ± are the reported error.

SMILES	test	system	setting	scale	quantity	value
CC[C@H](C)C(=O)N1CCC(NC(=O)Nc2ccc(OC(F)(F)F)c(F)c2)CC1		human	oral, 2 mg, single dose, mean		half-life	143 h
CC(C)C[C@H](NC(=O)[C@H](CCCCN)NC(=O)[C@H](C)NC(=O)[C@@H]1CCCN1C(=O)[C@@H]1CCCN1C(=O)[C@H](CCCCN)NC(=O)[C@H](CCCCN)NC(=O)[C@H](CO)NC(=O)[C@H](CCC(=O)O)NC(=O)[C@H](CCCCN)NC(=O)[C@H](CCCNC(=N)N)NC(=O)[C@H](CCC(N)=O)NC(=O)[C@H](CCC(N)=O)NC(=O)[C@@H](NC(=O)[C@H](CCCNC(=N)N)NC(=O)[C@H](CCC(N)=O)NC(=O)[C@H](Cc1cnc[nH]1)NC(=O)[C@H](CCC(=O)O)NC(=O)[C@@H]1CCCN1C(=O)[C@H](CO)NC(=O)[C@H](CC(C)C)NC(=O)[C@H](Cc1ccccc1)NC(=O)[C@H](CO)NC(=O)[C@H](CO)NC(=O)CN)C(C)C)C(=O)N[C@@H](CCC(N)=O)C(=O)N1CCC[C@H]1C(=O)N[C@@H](CCCNC(=N)N)C(=O)O		human		reference: compound over acyl ghrelin	half-life ratio	~3 fold
CCCCCCCCCCCCCCCC(=O)N[C@@H](CCC(=O)NCCCC[C@H](NC(=O)[C@H](CC(=O)O)NC(=O)[C@H](CO)NC(=O)[C@@H](NC(=O)[C@H](Cc1ccccc1)NC(=O)[C@@H](NC(=O)CNC(=O)[C@H](CCC(N)=O)NC(=O)[C@H](C)NC(=O)[C@@H](Cc1ccc(O)cc1)NC(C)=O)[C@@H](C)O)[C@@H](C)O)C(=O)N[C@@H](CO)C(=O)N[C@@H](CCCCN)C(=O)N[C@@H](Cc1ccc(O)cc1)C(=O)N[C@@H](CC(C)C)C(=O)N[C@@H](CC(=O)O)C(=O)N[C@@H](CCC(=O)O)C(=O)N[C@@H](CCCNC(=N)N)C(=O)N[C@@H](C)C(=O)N[C@@H](C)C(=O)N[C@@H](CCC(N)=O)C(=O)N[C@@H](CC(=O)O)C(=O)N[C@@H](Cc1ccccc1)C(=O)N[C@H](C(=O)N[C@@H](CCC(N)=O)C(=O)N[C@@H](Cc1c[nH]c2ccccc12)C(=O)N[C@@H](CC(C)C)C(=O)N[C@@H](CC(C)C)C(=O)N[C@@H](CCC(=O)O)C(=O)NCC(=O)NCC(=O)N1CCC[C@H]1C(=O)N[C@@H](CO)C(=O)N[C@@H](CO)C(=O)NCC(=O)N[C@@H](C)C(=O)N1CCC[C@H]1C(=O)N1CCC[C@H]1C(=O)N1CCC[C@H]1C(=O)N[C@@H](CO)C(N)=O)C(C)C)C(=O)O	single ascending dose	human	subcutaneous, 15 to 300 µg, geometric mean range		half-life	13.8 to 17.6 h
CC1(C)C(=O)N(c2ccc(C#N)c(C(F)(F)F)c2)C(=S)N1c1ccc(C(N)=O)c(F)c1		human, male, plasma	oral, 160 mg, single dose, after high-fat meal		half-life	203 ± 50.9 h
CC(C)C[C@@H](NC(=O)[C@@H](Cc1ccccc1)NC(=O)[C@H](N)Cc1ccccc1)C(=O)N[C@H](CCCCN)C(=O)N1CCC(N)(C(=O)O)CC1		human, plasma	intravenous, 5 µg/kg		half-life	2 h
CC(=CCC(O)C(C)=Cc1csc(C)n1)CC=CC(C)C(O)C(C)C(=O)C(C)(C)C(O)CC(=O)O (stereo not drawn)		human, plasma	intravenous infusion, 42 mg/m2 KOS-1584, 3 h infusion, cycle 1		half-life	24.1 ± 16.2 h
CCCCCCCC(=O)OC[C@H](NC(=O)[C@H](CO)NC(=O)CN)C(=O)N[C@@H](Cc1ccccc1)C(=O)N[C@@H](CC(C)C)C(=O)N[C@@H](CO)C(=O)N1CCC[C@H]1C(=O)N[C@@H](CCC(=O)O)C(=O)N[C@@H](Cc1cnc[nH]1)C(=O)N[C@@H](CCC(N)=O)C(=O)N[C@@H](CCCNC(=N)N)C(=O)N[C@H](C(=O)N[C@@H](CCC(N)=O)C(=O)N[C@@H](CCC(N)=O)C(=O)N[C@@H](CCCNC(=N)N)C(=O)N[C@@H](CCCCN)C(=O)N[C@@H](CCC(=O)O)C(=O)N[C@@H](CO)C(=O)N[C@@H](CCCCN)C(=O)N[C@@H](CCCCN)C(=O)N1CCC[C@H]1C(=O)N1CCC[C@H]1C(=O)N[C@@H](C)C(=O)N[C@@H](CCCCN)C(=O)N[C@@H](CC(C)C)C(=O)N[C@@H](CCC(N)=O)C(=O)N1CCC[C@H]1C(=O)N[C@@H](CCCNC(=N)N)C(=O)O)C(C)C	ELISA	healthy humans, both sexes, plasma	continuous intravenous infusion, 1 µg/kg/h, 65 min		half-life	0.183 ± 0.0667 h
CC1(C)C(=O)N(c2ccc(C#N)c(C(F)(F)F)c2)C(=S)N1c1ccc(C(=O)O)c(F)c1		human, male, plasma	oral, 160 mg, single dose, after high-fat meal		half-life	215 ± 77 h
C[C@H](NP(=O)(O)OC[C@H]1O[C@@](C#N)(c2ccc3c(N)ncnn23)[C@H](O)[C@@H]1O)C(=O)O		human, both sexes	dose not given		half-life	~1.25 h

Repeated from above:
SMILES	test	system	setting	scale	quantity	value
CCCCCCCCCCCCCCCC(=O)N[C@@H](CCC(=O)NCCCC[C@H](NC(=O)[C@H](CC(=O)O)NC(=O)[C@H](CO)NC(=O)[C@@H](NC(=O)[C@H](Cc1ccccc1)NC(=O)[C@@H](NC(=O)CNC(=O)[C@H](CCC(N)=O)NC(=O)[C@H](C)NC(=O)[C@@H](Cc1ccc(O)cc1)NC(C)=O)[C@@H](C)O)[C@@H](C)O)C(=O)N[C@@H](CO)C(=O)N[C@@H](CCCCN)C(=O)N[C@@H](Cc1ccc(O)cc1)C(=O)N[C@@H](CC(C)C)C(=O)N[C@@H](CC(=O)O)C(=O)N[C@@H](CCC(=O)O)C(=O)N[C@@H](CCCNC(=N)N)C(=O)N[C@@H](C)C(=O)N[C@@H](C)C(=O)N[C@@H](CCC(N)=O)C(=O)N[C@@H](CC(=O)O)C(=O)N[C@@H](Cc1ccccc1)C(=O)N[C@H](C(=O)N[C@@H](CCC(N)=O)C(=O)N[C@@H](Cc1c[nH]c2ccccc12)C(=O)N[C@@H](CC(C)C)C(=O)N[C@@H](CC(C)C)C(=O)N[C@@H](CCC(=O)O)C(=O)NCC(=O)NCC(=O)N1CCC[C@H]1C(=O)N[C@@H](CO)C(=O)N[C@@H](CO)C(=O)NCC(=O)N[C@@H](C)C(=O)N1CCC[C@H]1C(=O)N1CCC[C@H]1C(=O)N1CCC[C@H]1C(=O)N[C@@H](CO)C(N)=O)C(C)C)C(=O)O	single ascending dose	human	subcutaneous, 15 to 300 µg, geometric mean range		half-life	13.8 to 17.6 h
